Experimental data gathered from unrelated publications.
Each numbered part is a random draw from the data of one study; scales do not carry over between parts. Positions count from the first letter of the parent shown.

Block 1
Target: CCNA2, cyclin fold, Cln2 fusion (human)
Method: yeast growth competition, sequencing
Matrix: yeast
Setting: strong parent motif
Relative to: not given
Reading: higher = stronger binding
Quantity: normalised enrichment score
Parent: BORA docking peptide (human); SSLRRKLFLDGNG
L7A: 0.711
D10A: 1.62
R5A: 0.86
L9F: 2.81
R5A L7A: -0.232
F8L: 1.23
S2A: 2.67
R5K F8L: 0.799
G13A: 1.98
N12A: 2.48
F8A: 1.56

Block 2
Target: RNA binding protein fox-1 homolog 2, RRM domain, GST-SBP tag (RBFOX2, Homo sapiens, UniProt O43251-10, residues 100-194)
Method: RNA Bind-n-Seq
Form: RNA
Matrix: in vitro
Concentration: 365 nM
Setting: natural RNA segment, single round, ends assumed
Relative to: no-protein control
Reading: higher = stronger binding
Quantity: RBNS enrichment (R)
Constant ends, left off below: GGGAGUUCUACAGUCCGACGAUC … UGGAAUUCUCGGGUGCCAA
Residues (chain): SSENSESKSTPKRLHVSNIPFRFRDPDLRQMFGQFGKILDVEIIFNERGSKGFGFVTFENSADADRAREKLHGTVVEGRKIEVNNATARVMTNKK
UUGCUCUUGGAAAGGACAUCAGGUGUGGGCAAAGCAUCCUUGAAGCCCAGACAACACAGGCAUGGCCUGCGUGCCCUCCCAGCAUCUGCUGCGAUGGCCUCAAGGCCUCU: 0.474
CGUGAUGUUCUAGAGUUGUAUGUGUCUGGGUUCUUCCUAUGAGAUCUAAGGGGACGUUAUAAGUGAGCAGAAUAUCAGAAGACCAUGAAUAUGGCAAUUCAUAGUUGAGC: 1.33
UUCCUUUUCUACCCUUUCUAGUUCAUUUUCCAAGGUAGCUGUGAUAAAGCAUGACAUAAAAGCCCAAUUCAGAUCCUACUAAUAAAACAAGCUCCAAUGUAUUAUGGAAA: 1.49
CCACGAUGAUUUUCCUCUCUUUGAUGUACUUCAAGUGCAACUCAAAACUAUAUCUGCAGGGAUGAAUCUGUAACUUAAAUUGGGCCAAUCAGAAUUGUUAUCUUUGUUCA: 0.427
ACGACUCCAGUGUCAGAGCAGGGCCACCUGGGGUGUGUAGGAUGGGUACAGGGUUCCCAGCCUCAGGUUCCUGGAGGCCAAUGUCCAGCAAGAUCAUGCCUUCUCUGUCU: 0.359
CAAGUAGCACCGUUCCUGCCCAGUGGGAAAGCAAUCCCAACAUGUCUGAGAUGUUCGGACUUUUAAAUUCAUGUAAAUAUCUCCUCUUCUGCUGUGUGUACAUAGGACUA: 0.389
UAGAAUUUCUGGGUGGAGACCCAACUACAAUGACAUUGUCAUGCCAGAACUAUAAAGAUAAUUAGAGUUAAAAGUUGUUUAAAUUGUGCCCUUAAAUACAGCAGAACCUG: 0.439
CAAGGGAAGGCUUGGUCUGCGUUUUCUGUGUUUGGAUUAUUUUUAUACUUUGCUGAUCUUUAAGCUAUCCAUGGGGGAAAUUUUAUACCAACGAGUUAAUAAUUCUCAUU: 0.97

Block 3
Target: Fragile X messenger ribonucleoprotein 1, C-terminal low-complexity region (Fmr1, Mus musculus, UniProt P35922)
Method: RNA Bind-n-Seq
Form: RNA
Matrix: in vitro
Concentration: 200 nM
Setting: whole 134-nt RNA, ends assumed
Together with: 150 mM LiCl
Relative to: input library
Reading: higher = stronger binding
Quantity: log2 enrichment
Library: 7-deaza-guanosine replaces G
Constant ends, left off below: GGGAGUUCUACAGUCCGACGAUC … UGGAAUUCUCGGGUGUCAAGG
AAGUCCUGUGCUACACAUCGUAUGUACCGAAUCGGAAAAGGGAAAAGGGGAAAAGGGAAAGUAUUAUGUUACGCCGUUCGGAUCUGCACU: 0.196
AGUCCUGUGCUACACAUCGUAUGUACCGAAUCAAAUUUAAAUUUAAACCCCCCCAAAAAAGUAUUAUGUUACGCCGUUCGGAUCUGCACU: 1.49
AGUCCUGUGCUACACAUCGUAUGUACCGAAUCGGUUUUUUUGGUUUUUGGAAAAAGGAAAGUAUUAUGUUACGCCGUUCGGAUCUGCACU: -2.76
AGUCCUGUGCUACACAUCGUAUGUACCGAAUCGGGGUGGGGAGGGGUUUUUUUGGGGAAAGUAUUAUGUUACGCCGUUCGGAUCUGCACU: -0.153
UCAAGUCCUGUGCUACACAUCGUAUGUACCGAAUCGGGUUGGGGUUGGUUGGGGAAAGUAUUAUGUUACGCCGUUCGGAUCUGCACUUCC: -0.29
CCUGUGCUACACAUCGUAUGUACCGAAUCGGGGUUUUUUUGGUUUUUUUGGUUUUUUUGGAAAGUAUUAUGUUACGCCGUUCGGAUCUGC: 0.317
UGGCCCUGGUGGCAUGCGGGGAGGAAGAGGUGGCCUCAUGGAUCGUGGUGGUCCCGGUGGAAUGUUCACAGGUGGCCGUGGUGGAGACAG: -1.15
UUCCUCAGGGUAGAACUGGAUGACUCAGACGUGUUCCAUGGUGAACCUGAACCUGAGGAGCUGCCUGGAGGUAAGGGCCCUGAACUGUCC: -2.56

Block 4
Target: Sal-like protein 4, full length isoform A (SALL4, Homo sapiens, UniProt Q9UJQ4, residues 1-1053)
Sequence of UniProt Q9UJQ4 (whole entry, looked up): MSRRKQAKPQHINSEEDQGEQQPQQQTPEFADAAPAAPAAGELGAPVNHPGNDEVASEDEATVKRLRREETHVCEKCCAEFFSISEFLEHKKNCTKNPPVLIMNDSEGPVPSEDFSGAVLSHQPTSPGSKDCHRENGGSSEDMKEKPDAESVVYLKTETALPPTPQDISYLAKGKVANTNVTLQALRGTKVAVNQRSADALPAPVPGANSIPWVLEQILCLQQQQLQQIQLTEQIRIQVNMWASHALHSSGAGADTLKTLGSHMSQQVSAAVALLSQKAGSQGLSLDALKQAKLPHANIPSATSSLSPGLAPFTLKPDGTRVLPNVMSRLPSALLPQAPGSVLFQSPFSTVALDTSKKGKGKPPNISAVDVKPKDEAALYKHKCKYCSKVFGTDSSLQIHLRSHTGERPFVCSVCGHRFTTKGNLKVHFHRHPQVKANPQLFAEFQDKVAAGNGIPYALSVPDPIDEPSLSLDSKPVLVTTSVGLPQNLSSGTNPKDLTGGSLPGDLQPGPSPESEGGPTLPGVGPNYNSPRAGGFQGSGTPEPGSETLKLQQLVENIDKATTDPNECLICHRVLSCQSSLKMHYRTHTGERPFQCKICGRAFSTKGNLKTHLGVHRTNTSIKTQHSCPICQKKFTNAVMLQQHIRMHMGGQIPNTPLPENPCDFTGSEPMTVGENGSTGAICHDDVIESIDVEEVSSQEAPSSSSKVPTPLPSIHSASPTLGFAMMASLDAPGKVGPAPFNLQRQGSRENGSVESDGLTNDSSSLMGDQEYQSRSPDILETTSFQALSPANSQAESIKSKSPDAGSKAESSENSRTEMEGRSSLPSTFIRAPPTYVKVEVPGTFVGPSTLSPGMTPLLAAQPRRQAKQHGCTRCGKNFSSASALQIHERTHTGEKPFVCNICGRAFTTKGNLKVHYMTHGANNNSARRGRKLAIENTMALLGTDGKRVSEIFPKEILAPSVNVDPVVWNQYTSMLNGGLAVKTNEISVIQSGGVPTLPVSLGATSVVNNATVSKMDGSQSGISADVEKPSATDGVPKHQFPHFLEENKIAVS
Method: universal PBM
Form: double-stranded DNA, one strand shown
Matrix: in vitro
Concentration: 600 nM
Setting: 8-mer, flanks averaged, mean of replicates
Reading: higher = stronger binding
Quantity: E-score
AAGTTCGA: 0.0483
GGCACACC: -0.339
CGAAGTTC: -0.0216
ATCGTTCG: 0.015
AACAGTAC: 0.112
CATGCCGA: 0.0102
CCGCCAGG: -0.368
ACGATCAT: 0.0728
AGAAGCCA: -0.0459
TCGCGAAA: -0.0854
AGGGCATA: 0.186
ACATGAAC: 0.18
CCCTCCAC: -0.134
CGGAGGTA: -0.241
GAGTAAGA: 0.135
ATCGGATG: -0.0583
ACTGTTTC: -0.0136
AACGGGTA: 0.0289
CCGTGCAG: -0.203
ATTGGGTC: -0.134

Block 5
Target: Histone acetyltransferase KAT6A, both winged helices, GST fusion (KAT6A, Homo sapiens, UniProt Q92794, residues 1-181)
Method: protein binding microarray
Form: double-stranded DNA, one strand shown
Matrix: in vitro
Concentration: not given
Setting: 8-mer, flanks averaged, mean of 2 arrays, mostly near background
Relative to: not given
Reading: higher = stronger binding
Quantity: E-score
Residues (chain): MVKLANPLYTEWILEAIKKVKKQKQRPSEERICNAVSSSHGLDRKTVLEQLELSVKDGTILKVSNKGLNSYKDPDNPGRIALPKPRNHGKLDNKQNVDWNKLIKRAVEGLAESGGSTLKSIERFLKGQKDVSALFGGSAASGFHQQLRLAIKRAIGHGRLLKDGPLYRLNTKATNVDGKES
ATAGCTAA: -0.103
CACGGCGC: 0.342
ATCAAACG: 0.141
AGCGATTA: 0.00683
CATGTCCG: 0.162
CACACGGA: 0.234
AAGTCGAC: -0.0188
GTTGATGA: -0.114
ACACCTGT: -0.0602
ACAATTGG: -0.17
GAGCTGCA: -0.0494
CCGCCCGC: 0.316
GACCAAAA: 0.0612
AGTAAGGG: -0.0638
AATTCGAA: -0.156
CCGAGAAA: 0.139
AACAATGT: -0.093
AATAGCGC: 0.231
ATGACACC: -0.0376
AACACACT: -0.0473
CAGGTTAG: -0.12
GACCGGTC: 0.2

Excerpt of the above (block 4):
AAGTTCGA: 0.0483
GGCACACC: -0.339
CGAAGTTC: -0.0216
ATCGTTCG: 0.015
AACAGTAC: 0.112
CATGCCGA: 0.0102
CCGCCAGG: -0.368
ACGATCAT: 0.0728
AGAAGCCA: -0.0459
TCGCGAAA: -0.0854
AGGGCATA: 0.186
